# Measurements pooled from the literature.
# Every numbered part comes from another study and shows a few of its results, in no order. Changes are numbered by the printed parent chain.

# Sample 1
# Target: ABI1, truncated, D143A, DHFR fusion (Arabidopsis thaliana)
# Technique: DHFR PCA, deep sequencing
# Medium: yeast
# Setting: methotrexate growth selection, single substitutions
# Together with: (+)-ABA 0.39 µM
# Reference: wild-type fitted maximum
# Reading: higher = stronger binding
# Parent: PYL1, truncated, DHFR fusion (Arabidopsis thaliana); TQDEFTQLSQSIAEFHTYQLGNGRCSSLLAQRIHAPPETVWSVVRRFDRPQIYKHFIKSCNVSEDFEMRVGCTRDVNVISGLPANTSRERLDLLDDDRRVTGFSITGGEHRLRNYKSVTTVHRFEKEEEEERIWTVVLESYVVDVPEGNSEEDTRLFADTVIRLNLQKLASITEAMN; partner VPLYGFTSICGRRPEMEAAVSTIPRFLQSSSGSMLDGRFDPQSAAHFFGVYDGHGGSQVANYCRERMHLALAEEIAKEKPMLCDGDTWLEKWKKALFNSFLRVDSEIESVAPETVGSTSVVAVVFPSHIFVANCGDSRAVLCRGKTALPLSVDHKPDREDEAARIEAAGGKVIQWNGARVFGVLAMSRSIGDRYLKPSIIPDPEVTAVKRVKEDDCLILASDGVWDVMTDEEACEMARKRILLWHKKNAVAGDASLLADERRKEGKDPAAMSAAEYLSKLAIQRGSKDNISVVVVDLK
Variant,relative binding score [%]
R88G,-7.57
R99K,55.1
D97V,43.2
L169Q,2.43
P36R,23.9
Q167F,-3.97
K168A,10.7
T119C,8.24
E129F,25
A175K,38.6
N85W,53.2
E4L,44.6
R74F,-4.12
E38M,2.19
Q2F,69.4
T1I,52.5
R88K,46.9
P37A,30.9
E128Q,47.7
D153L,-6.01
E4N,15.5

# Sample 2
# Target: CCND3, cyclin fold, Cln2 fusion (human)
# Technique: yeast growth competition, sequencing
# Medium: yeast
# Setting: weak parent motif
# Reference: not given
# Reading: higher = stronger binding
# Parent: ORC1 docking peptide (human); PRARKRLELGNLG; partner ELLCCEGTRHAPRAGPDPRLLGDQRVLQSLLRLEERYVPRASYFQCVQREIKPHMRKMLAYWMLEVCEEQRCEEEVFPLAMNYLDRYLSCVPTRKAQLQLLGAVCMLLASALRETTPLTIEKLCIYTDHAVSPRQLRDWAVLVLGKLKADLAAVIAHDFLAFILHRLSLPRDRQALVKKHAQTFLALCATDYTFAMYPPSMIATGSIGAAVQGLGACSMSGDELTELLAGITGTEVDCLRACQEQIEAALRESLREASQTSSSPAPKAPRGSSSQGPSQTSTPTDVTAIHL
Variant,normalised enrichment score
PCARKRLELGNLG [R2C],0.103
PRARKRLELHNLG [G10H],0.149
PRAFKRLELGNLG [R4F],0.203
PRARKRWELGNLG [L7W],0.141
PRARKRLELGNLI [G13I],0.0475
PHARKRLELGNLG [R2H],0.112
PRARKRLELGGLG [N11G],0.197
ARARKRLELGNLG [P1A],0.187
PRARKREELGNLG [L7E],0.0924
PRARKRCELGNLG [L7C],0.0862
PRARKRLELWNLG [G10W],0.28
PRARKRLPLGNLG [E8P],0.196
PRARARLELGNLG [K5A],0.124
PRAWKRLELGNLG [R4W],0.128
PRARKRLERGNLG [L9R],0.195
PRARKRYELGNLG [L7Y],0.15
PRARKRLELGKLG [N11K],0.128
PRARKRLELGLLG [N11L],0.178
PRMRKRLELGNLG [A3M],0.298

# Sample 3
# Target: Histone acetyltransferase KAT6A, both winged helices, GST fusion (KAT6A, Homo sapiens, UniProt Q92794, residues 1-181)
# Technique: protein binding microarray
# Form: double-stranded DNA, one strand shown
# Medium: in vitro
# Tested at: not given
# Setting: 8-mer, flanks averaged, mean of 2 arrays, mostly near background
# Reference: not given
# Reading: higher = stronger binding
# Target sequence (chain): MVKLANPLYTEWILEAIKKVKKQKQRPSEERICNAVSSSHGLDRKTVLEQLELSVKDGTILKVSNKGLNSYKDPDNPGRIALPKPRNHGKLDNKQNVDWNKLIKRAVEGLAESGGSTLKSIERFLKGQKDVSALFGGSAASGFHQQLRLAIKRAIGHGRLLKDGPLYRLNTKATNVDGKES
Strand,E-score
AGCCACCC,-0.0457
CACTCAGA,-0.12
AAGGTCTA,-0.074
CCCTACCC,-0.104
ACCTGACA,-0.109
AGAACATG,-0.064
GACAAGGA,-0.125
GCGTTCCC,0.229
CGGCTGAA,0.219
CGTATACA,0.0995
TAAGTGTA,-0.0878
CGAACCCA,-0.00237
GACTCCCA,-0.285
ACTAGACC,-0.0688
ATGTATCC,0.0193
CCTTTATA,-0.13
CAGGTCTA,-0.178
AGAAGTGA,-0.0997
GGTGCTGA,-0.173
AAGTCGCT,-0.0146
ATCTGAGG,-0.138
CCGGAAAA,0.182
ATGAGATC,-0.169
CCTATAAA,-0.105
AGAGGGAT,-0.247

# Sample 4
# Target: RING finger protein unkempt homolog, zinc fingers 1-6, GST-SBP tag (UNK, Homo sapiens, UniProt Q9C0B0, residues 30-357)
# Chain of UniProt Q9C0B0 (30-357, looked up): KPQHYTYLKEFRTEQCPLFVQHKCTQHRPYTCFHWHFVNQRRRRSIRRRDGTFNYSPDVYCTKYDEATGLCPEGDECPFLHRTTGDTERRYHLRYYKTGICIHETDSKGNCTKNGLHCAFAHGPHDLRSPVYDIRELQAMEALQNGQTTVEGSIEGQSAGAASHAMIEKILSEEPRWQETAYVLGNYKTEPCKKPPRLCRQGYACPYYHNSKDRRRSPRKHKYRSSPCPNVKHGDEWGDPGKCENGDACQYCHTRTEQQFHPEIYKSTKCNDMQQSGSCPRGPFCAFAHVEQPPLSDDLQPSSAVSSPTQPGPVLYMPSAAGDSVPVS
# Technique: RNA Bind-n-Seq
# Form: RNA
# Medium: in vitro
# Tested at: not given
# Setting: RNA with constant flanks, ends assumed
# Reference: input RNA pool
# Reading: higher = stronger binding
# All sequences stand within: GGGAGUUCUACAGUCCGACGAUC … CAACAGAGGAUUGAGCAUCA
Strand,bound/input enrichment
ACAGACAUUCGCUGCCCCUUUGAAAAACGAAGAGAUGCAGCAUGUGUGUUUUGGGACAAUGCCGUAUACAUUUUGGGAGGUUCUCAGCUUUUCCCCAUAAAGCGAAUGGAUUGCUACAAU,0.12 ratio
AAUAUCAUUCCUAGUACCUUUUUGCCUAAACAAGAAGGACCUUUUUUCUUGGACUUUAACCGUAUUAUCCCCAUCAAGAUCACACAACUUCAGUGAUGGAGAAAUCUCAAGUUACUGGCU,0.328 ratio
AAUGCUUGUUGGGUGCAUAAACACUUCACGGAAGACAUCCAGACGCGUCAGUACCGCUCCACCGAGGUUUUAAUAGGAGCGGGGUACAGCACCCCUGCGGACAUCUGGAGCACGGCGUGU,0.1 ratio
CAGAUCCGAUGUCUCUGCCAGCUUGGGGCUGAAGUUACCGUGGUACCCUGGGACCACGAGUCCGACAGUCAGAAAUAUGACGGUCUCUUCCUAAGUAAUGGACCCGGUGACCCUGCCUCU,0.1 ratio
CACCCUAUAGAGGUAGUUGUCACACACACACACACACACACACACACACUGUUCACUUCCCCGCUCCUUUCCCCUCCACCUUUCUUUCAGAGUUUGUUCUCAUUUUUCAGAAUUCUUCUG,2.58 ratio
GUUCAAAUAUUAUGUGAAUGUUGUUAAGAAAACAGACUGUAAUUUACCCUAGUAAACCCGCCGUAAUGUCAAGAUUCAAACCUAGGUGUACUCAAAAAUCAGCUCUCUAGUGUUAAGUCC,0.592 ratio
CAGCAGACCUGCCCACUGUGCAAAUUCAACGUCCUGGGGAACCGCUACUCCGAUGAUCCGCUGCCCAGCUGGACUCUGCACAUGGGGAUGGACCCUUCCUGCCUGCACCCCGGUCCUCAG,0.106 ratio
AACCUUCCAUCGUUGCCAGAUAUCCCACCUAUACAGUUGGAAGAUGCUGGCUCAAGCCGUUCCGAUAAUCUACUGAGUAGAUAUAUCUCAGGCAGUCAUCUACCCCCUCAGCCUACAAGU,0.164 ratio

# Single results of other studies
Substance,target,test,test system,setting,scale,endpoint,value
"PhoQ, residues 284 288 289 292 302 303 TYGVAM","PhoP, residues 12 14 15 18 19 HEGLL (Escherichia coli, UniProt P23836)","Sort-seq, refers to: YFP reporter",E. coli,"PhoQ-PhoP variant library, together with: 10 µM Mg2+","reference: high Mg2+ state, higher = stronger signaling",fold induction,3.07

# Excerpt of the above (sample 2):
Variant,normalised enrichment score
PRAFKRLELGNLG [R4F],0.203
PRARKRWELGNLG [L7W],0.141
PRARKRLELGNLI [G13I],0.0475
PHARKRLELGNLG [R2H],0.112
PRARKRLELGGLG [N11G],0.197
